Results from different studies.
Parts stem from different laboratories: compare values within a part only.
Chain of UniProt Q9HC98 (whole entry, looked up): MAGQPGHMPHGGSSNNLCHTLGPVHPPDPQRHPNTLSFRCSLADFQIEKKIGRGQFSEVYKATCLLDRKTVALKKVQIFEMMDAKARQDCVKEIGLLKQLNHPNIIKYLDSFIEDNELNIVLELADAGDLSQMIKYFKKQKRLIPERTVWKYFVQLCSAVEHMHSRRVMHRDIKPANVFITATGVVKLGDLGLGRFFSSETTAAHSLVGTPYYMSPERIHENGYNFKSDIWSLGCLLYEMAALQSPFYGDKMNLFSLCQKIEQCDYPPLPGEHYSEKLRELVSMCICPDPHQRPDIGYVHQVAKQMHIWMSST
Chain of UniProt P11802 (whole entry, looked up): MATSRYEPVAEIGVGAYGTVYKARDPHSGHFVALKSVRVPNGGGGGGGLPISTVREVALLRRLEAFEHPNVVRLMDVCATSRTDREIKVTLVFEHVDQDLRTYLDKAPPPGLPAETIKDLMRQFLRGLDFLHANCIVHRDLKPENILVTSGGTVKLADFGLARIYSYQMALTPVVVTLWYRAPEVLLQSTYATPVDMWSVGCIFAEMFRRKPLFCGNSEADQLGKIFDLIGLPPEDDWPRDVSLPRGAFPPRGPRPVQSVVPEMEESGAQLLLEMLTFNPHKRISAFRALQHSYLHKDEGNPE
Chain of UniProt Q96RR4 (whole entry, looked up): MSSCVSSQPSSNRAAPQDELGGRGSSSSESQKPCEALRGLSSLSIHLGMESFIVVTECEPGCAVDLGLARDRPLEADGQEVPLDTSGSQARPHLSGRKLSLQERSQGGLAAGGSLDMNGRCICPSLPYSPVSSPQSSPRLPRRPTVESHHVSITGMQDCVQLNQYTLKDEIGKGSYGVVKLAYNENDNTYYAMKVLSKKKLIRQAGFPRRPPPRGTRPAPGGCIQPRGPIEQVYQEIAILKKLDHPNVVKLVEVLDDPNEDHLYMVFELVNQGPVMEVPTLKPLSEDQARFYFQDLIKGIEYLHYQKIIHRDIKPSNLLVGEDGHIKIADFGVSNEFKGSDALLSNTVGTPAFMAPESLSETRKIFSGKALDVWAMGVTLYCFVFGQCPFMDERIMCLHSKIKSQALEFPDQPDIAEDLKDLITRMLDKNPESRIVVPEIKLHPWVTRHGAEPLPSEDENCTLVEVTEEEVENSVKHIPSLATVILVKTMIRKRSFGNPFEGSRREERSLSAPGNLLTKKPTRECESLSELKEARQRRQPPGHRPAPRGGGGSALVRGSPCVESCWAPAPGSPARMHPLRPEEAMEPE
Chain of UniProt P57078 (whole entry, looked up): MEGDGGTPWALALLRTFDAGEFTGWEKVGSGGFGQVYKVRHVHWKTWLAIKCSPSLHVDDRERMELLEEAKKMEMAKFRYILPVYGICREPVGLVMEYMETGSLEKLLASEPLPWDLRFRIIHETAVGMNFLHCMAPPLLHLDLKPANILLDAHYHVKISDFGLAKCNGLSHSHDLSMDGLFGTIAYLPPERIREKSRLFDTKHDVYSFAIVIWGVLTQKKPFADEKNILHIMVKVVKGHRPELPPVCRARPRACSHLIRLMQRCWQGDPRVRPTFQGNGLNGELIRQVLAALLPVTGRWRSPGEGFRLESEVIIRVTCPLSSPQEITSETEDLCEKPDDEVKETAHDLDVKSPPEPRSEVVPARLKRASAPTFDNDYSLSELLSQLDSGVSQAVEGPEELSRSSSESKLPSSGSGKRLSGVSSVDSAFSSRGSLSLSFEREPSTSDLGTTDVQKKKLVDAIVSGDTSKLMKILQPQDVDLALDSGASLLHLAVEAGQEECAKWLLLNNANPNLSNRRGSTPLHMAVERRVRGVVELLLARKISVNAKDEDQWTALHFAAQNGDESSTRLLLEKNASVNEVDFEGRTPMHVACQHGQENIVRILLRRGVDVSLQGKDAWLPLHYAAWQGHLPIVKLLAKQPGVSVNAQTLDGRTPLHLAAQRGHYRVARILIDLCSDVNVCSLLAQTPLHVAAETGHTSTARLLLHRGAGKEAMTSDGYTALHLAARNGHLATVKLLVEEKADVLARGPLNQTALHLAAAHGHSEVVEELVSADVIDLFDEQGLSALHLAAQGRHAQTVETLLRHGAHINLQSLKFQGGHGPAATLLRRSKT
Chain of UniProt Q15303 (whole entry, looked up): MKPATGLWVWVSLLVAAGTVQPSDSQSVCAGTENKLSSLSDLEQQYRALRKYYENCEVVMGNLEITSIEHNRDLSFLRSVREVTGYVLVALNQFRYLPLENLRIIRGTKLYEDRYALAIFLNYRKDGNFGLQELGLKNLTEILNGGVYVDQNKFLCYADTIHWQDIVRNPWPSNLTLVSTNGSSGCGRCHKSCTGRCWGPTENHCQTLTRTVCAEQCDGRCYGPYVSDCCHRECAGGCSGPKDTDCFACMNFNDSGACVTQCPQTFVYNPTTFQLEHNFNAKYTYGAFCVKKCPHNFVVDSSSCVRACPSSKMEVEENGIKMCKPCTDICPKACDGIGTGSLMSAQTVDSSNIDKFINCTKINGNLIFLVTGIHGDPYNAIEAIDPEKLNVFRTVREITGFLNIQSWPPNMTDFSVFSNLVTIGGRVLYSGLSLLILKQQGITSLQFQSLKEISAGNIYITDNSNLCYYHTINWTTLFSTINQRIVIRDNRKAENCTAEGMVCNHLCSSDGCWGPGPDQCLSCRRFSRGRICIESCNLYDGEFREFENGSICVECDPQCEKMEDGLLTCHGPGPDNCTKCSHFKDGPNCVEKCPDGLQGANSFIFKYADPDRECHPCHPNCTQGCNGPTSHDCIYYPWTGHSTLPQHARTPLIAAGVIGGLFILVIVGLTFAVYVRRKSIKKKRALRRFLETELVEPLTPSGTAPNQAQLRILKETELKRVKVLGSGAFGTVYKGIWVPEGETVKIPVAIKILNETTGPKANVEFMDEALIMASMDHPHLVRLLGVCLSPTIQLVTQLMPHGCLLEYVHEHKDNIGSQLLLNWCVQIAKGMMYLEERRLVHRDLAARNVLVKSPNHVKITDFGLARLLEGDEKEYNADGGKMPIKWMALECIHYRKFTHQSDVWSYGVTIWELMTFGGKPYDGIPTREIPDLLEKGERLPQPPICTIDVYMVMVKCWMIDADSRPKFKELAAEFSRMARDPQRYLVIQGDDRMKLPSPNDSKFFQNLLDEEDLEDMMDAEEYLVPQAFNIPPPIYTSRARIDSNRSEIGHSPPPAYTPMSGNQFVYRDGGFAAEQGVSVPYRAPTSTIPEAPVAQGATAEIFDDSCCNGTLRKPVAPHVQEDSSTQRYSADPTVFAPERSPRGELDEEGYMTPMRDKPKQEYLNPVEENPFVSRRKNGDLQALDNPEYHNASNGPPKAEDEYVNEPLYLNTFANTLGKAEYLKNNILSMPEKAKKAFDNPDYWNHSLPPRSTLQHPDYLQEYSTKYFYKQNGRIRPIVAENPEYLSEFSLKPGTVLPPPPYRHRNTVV
Chain of UniProt Q96Q40 (whole entry, looked up): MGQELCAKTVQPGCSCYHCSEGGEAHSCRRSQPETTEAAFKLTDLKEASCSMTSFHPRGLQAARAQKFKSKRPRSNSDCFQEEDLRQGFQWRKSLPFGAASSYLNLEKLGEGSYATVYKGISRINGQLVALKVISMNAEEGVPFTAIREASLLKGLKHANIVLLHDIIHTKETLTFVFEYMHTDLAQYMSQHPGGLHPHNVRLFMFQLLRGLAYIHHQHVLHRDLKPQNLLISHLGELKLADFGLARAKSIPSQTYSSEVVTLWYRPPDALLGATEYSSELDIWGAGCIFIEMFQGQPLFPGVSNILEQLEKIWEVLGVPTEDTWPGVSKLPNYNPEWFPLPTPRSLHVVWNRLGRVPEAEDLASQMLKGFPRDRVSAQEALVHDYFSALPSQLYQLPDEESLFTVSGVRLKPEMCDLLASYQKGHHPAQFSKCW
Chain of UniProt Q8NEB9 (whole entry, looked up): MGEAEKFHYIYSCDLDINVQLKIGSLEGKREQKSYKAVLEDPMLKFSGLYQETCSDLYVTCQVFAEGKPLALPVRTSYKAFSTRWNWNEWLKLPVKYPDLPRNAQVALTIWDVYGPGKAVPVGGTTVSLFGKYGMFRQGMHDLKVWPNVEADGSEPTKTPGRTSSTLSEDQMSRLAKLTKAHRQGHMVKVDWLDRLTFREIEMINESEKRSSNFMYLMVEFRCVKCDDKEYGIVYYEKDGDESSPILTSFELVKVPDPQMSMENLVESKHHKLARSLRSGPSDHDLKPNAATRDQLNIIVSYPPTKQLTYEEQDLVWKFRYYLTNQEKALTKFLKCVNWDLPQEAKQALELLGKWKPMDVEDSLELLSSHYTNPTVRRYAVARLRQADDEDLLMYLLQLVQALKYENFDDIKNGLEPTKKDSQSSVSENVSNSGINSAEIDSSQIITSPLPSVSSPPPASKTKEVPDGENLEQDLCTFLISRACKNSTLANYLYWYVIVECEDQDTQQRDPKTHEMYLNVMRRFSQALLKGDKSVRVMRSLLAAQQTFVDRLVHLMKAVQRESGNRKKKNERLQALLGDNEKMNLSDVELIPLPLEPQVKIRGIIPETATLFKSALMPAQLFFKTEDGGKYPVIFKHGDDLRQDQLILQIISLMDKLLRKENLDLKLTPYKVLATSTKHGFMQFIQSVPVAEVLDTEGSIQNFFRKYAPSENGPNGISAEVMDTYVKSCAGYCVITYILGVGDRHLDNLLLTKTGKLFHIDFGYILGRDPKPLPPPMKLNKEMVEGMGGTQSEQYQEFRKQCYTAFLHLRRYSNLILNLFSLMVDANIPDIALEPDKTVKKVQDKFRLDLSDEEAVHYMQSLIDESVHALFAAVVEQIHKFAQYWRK
Chain of UniProt P52564 (whole entry, looked up): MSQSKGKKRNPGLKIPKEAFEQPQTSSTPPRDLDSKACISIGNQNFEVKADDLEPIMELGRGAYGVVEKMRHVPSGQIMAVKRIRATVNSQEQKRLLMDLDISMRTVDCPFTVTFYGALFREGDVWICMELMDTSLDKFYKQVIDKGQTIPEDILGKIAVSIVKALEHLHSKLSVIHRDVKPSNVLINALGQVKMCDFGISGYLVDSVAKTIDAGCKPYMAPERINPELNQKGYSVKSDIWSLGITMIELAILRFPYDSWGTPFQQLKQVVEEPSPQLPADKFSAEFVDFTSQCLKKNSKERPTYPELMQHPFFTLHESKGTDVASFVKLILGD

Set 1
Target: PABPC1L2, full length, GST fusion (mouse, UniProt A0ABA7IW68)
Method: RNAcompete
Form: RNA
Sample: in vitro
Tested at: 20 nM
Notes: 7-mer, probes averaged, single round
Relative to: mean of 7-mers
Reading: higher = stronger binding
Measurement: 7-mer Z-score
Residues (chain): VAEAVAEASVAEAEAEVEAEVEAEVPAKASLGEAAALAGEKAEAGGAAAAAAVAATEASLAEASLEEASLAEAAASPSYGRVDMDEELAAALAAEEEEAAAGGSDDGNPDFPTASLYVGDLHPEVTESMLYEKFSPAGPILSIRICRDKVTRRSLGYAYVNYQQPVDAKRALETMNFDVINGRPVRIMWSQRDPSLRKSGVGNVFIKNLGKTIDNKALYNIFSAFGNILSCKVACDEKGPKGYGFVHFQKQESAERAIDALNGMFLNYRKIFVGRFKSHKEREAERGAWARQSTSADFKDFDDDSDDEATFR
UUGUUGU: -0.528
UUAACGU: -0.246
UCGUGCC: -0.291
AGACGAU: -0.208
AUGGUGC: 0.153
UUACCGC: -0.324
UUCCAGU: -0.255
ACUUACG: -0.146

Set 2
SMILES: CC(=O)N1CCC(c2ccc(C(=O)NC(=N)N)cc2C(F)(F)F)CC1
Tested at: 1 µM
Measurement: remaining binding
Phosphatidylinositol 3-kinase catalytic subunit type 3 (PIK3C3, Homo sapiens, UniProt Q8NEB9); cell-free assay, competition with immobilised ligand: 100%
Serine/threonine-protein kinase SIK1 (SIK1, Homo sapiens, UniProt P57059); competition binding: 100%
Receptor-type tyrosine-protein kinase FLT3 (FLT3, Homo sapiens, UniProt P36888, D835Y); cell-free assay, competition with immobilised ligand: 100%
Leukocyte tyrosine kinase receptor (LTK, Homo sapiens, UniProt P29376); cell-free assay, competition with immobilised ligand: 100%
Receptor-type tyrosine-protein kinase FLT3 (FLT3, Homo sapiens, UniProt P36888, D835V); cell-free assay, competition with immobilised ligand: 92%
Receptor-interacting serine/threonine-protein kinase 4 (RIPK4, Homo sapiens, UniProt P57078); cell-free assay, competition with immobilised ligand: 76%
Serine/threonine-protein kinase Nek6 (NEK6, Homo sapiens, UniProt Q9HC98); cell-free assay, competition with immobilised ligand: 100%
Calcium/calmodulin-dependent protein kinase kinase 2 (CAMKK2, Homo sapiens, UniProt Q96RR4); cell-free assay, competition with immobilised ligand: 100%
Wee1-like protein kinase 2 (WEE2, Homo sapiens, UniProt P0C1S8); cell-free assay, competition with immobilised ligand: 100%
Receptor tyrosine-protein kinase erbB-4 (ERBB4, Homo sapiens, UniProt Q15303); cell-free assay, competition with immobilised ligand: 100%
Tyrosine-protein kinase ABL1, phosphorylated (ABL1, Homo sapiens, UniProt P00519); cell-free assay, competition with immobilised ligand: 89%
Homeodomain-interacting protein kinase 3 (HIPK3, Homo sapiens, UniProt Q9H422); cell-free assay, competition with immobilised ligand: 82%
MAP kinase-activated protein kinase 2 (MAPKAPK2, Homo sapiens, UniProt P49137); cell-free assay, competition with immobilised ligand: 100%
MAP kinase-activated protein kinase 5 (MAPKAPK5, Homo sapiens, UniProt Q8IW41); cell-free assay, competition with immobilised ligand: 100%
STE20/SPS1-related proline-alanine-rich protein kinase (STK39, Homo sapiens, UniProt Q9UEW8); cell-free assay, competition with immobilised ligand: 90%
Dual specificity mitogen-activated protein kinase kinase 6 (MAP2K6, Homo sapiens, UniProt P52564); cell-free assay, competition with immobilised ligand: 100%
Cyclin-dependent kinase 15 (CDK15, Homo sapiens, UniProt Q96Q40); cell-free assay, competition with immobilised ligand: 100%
Cyclin-dependent kinase 4, with cyclin D3 (CDK4, Homo sapiens, UniProt P11802); cell-free assay, competition with immobilised ligand: 100%

Set 3
Target: Probable WRKY transcription factor 33, N-terminal DNA-binding domain (WRKY33, Arabidopsis thaliana, UniProt Q8S8P5, residues 169-264)
Method: DNA-protein interaction ELISA
Form: double-stranded DNA, one strand shown
Sample: in vitro, bacterial lysate
Tested at: not given
Notes: whole dsDNA probe, crude lysate protein
Relative to: highest signal in screen
Reading: higher = stronger binding
Measurement: relative absorbance
Target sequence (chain): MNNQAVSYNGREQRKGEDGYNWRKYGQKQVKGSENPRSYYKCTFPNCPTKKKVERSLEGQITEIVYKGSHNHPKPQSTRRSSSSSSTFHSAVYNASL
AAAAAAACTCTCCGGGTACAATTGCAAAAA: 17.3 % of maximum
AAAAAATCTATTCCATTTCGCCTTCTAAAA: 20.9 % of maximum
AAAAAATTCAGAGCTTCGAGGTTCCGAAAA: 21.3 % of maximum
AAAAAAACGGTGTCATAGTATTAGTGAAAA: 19.2 % of maximum
AAAAAATGTTTTTTAGAGGTGTGCAAAAAA: 21.6 % of maximum
AAAAAATCCCTGCTCCCCTGGTTCCTAAAA: 24.1 % of maximum
AAAAAACCGCTTACATTGCGTTGTCGAAAA: 30.5 % of maximum
AAAAAATTAATCCATGCTTATGTCTGAAAA: 22.7 % of maximum

Single results of other studies
Fc1ccc2c(c1)nc1n2[C@@H](CNCc2ccccc2)COC1 — IC50 (Beta-1 adrenergic receptor (ADRB1, Homo sapiens, UniProt P08588); antagonist): 15.8 µM
CC(C)Nc1ccnc(N2CCN(Cc3cccs3)C(CCO)C2)n1 (stereo not drawn) — remaining compound (mouse, microsomes or S9; 2 µM, 0.5 h): 2.23%
